Assay results pooled from the literature.
Each line is one published result; not all experiments were run side by side. Numbers after ± are the reported error.
DCLK2: Serine/threonine-protein kinase DCLK2 (DCLK2, Homo sapiens, UniProt Q8N568)
Chain of UniProt Q8N568 (whole entry, looked up): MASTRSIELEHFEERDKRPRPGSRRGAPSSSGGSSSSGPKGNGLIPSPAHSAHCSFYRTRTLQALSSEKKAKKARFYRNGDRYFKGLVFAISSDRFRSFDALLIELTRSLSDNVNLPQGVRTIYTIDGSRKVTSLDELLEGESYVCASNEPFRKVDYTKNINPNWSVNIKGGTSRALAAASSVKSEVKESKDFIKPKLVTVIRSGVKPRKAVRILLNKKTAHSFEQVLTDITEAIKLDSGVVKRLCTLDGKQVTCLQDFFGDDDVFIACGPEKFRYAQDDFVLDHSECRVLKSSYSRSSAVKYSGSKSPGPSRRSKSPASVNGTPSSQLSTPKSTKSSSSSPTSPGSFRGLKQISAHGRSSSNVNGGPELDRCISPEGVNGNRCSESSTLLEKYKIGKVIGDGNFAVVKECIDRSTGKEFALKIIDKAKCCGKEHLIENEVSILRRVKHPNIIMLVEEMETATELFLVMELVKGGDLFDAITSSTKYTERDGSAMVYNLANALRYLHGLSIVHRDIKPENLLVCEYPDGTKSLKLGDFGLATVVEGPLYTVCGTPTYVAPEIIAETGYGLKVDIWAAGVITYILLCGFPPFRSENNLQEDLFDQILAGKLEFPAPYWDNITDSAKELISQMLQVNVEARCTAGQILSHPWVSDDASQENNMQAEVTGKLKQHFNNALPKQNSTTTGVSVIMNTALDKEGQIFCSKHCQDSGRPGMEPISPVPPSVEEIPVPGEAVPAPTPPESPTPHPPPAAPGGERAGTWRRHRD
SRMS: Tyrosine-protein kinase Srms (SRMS, Homo sapiens, UniProt Q9H3Y6)
Chain of UniProt Q9H3Y6 (whole entry, looked up): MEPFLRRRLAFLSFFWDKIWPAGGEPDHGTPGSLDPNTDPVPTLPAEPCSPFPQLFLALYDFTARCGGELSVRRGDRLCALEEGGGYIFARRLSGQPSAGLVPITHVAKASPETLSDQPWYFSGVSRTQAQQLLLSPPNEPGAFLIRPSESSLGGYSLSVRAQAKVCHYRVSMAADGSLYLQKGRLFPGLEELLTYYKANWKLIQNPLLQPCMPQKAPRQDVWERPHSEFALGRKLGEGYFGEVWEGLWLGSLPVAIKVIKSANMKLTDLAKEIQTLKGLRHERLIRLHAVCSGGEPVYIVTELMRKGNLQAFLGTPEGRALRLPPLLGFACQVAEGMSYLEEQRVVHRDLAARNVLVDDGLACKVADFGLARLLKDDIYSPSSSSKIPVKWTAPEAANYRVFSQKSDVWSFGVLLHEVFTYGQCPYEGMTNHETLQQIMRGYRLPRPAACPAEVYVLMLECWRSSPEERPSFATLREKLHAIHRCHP
CDK2 with cyclin A2: Cyclin-dependent kinase 2, with cyclin A2 (CDK2, Homo sapiens, UniProt P24941)
PRKACB: cAMP-dependent protein kinase catalytic subunit beta (PRKACB, Homo sapiens, UniProt P22694)
CDC42BPA: Serine/threonine-protein kinase MRCK alpha (CDC42BPA, Homo sapiens, UniProt Q5VT25)
Chain of UniProt Q5VT25 (whole entry, looked up): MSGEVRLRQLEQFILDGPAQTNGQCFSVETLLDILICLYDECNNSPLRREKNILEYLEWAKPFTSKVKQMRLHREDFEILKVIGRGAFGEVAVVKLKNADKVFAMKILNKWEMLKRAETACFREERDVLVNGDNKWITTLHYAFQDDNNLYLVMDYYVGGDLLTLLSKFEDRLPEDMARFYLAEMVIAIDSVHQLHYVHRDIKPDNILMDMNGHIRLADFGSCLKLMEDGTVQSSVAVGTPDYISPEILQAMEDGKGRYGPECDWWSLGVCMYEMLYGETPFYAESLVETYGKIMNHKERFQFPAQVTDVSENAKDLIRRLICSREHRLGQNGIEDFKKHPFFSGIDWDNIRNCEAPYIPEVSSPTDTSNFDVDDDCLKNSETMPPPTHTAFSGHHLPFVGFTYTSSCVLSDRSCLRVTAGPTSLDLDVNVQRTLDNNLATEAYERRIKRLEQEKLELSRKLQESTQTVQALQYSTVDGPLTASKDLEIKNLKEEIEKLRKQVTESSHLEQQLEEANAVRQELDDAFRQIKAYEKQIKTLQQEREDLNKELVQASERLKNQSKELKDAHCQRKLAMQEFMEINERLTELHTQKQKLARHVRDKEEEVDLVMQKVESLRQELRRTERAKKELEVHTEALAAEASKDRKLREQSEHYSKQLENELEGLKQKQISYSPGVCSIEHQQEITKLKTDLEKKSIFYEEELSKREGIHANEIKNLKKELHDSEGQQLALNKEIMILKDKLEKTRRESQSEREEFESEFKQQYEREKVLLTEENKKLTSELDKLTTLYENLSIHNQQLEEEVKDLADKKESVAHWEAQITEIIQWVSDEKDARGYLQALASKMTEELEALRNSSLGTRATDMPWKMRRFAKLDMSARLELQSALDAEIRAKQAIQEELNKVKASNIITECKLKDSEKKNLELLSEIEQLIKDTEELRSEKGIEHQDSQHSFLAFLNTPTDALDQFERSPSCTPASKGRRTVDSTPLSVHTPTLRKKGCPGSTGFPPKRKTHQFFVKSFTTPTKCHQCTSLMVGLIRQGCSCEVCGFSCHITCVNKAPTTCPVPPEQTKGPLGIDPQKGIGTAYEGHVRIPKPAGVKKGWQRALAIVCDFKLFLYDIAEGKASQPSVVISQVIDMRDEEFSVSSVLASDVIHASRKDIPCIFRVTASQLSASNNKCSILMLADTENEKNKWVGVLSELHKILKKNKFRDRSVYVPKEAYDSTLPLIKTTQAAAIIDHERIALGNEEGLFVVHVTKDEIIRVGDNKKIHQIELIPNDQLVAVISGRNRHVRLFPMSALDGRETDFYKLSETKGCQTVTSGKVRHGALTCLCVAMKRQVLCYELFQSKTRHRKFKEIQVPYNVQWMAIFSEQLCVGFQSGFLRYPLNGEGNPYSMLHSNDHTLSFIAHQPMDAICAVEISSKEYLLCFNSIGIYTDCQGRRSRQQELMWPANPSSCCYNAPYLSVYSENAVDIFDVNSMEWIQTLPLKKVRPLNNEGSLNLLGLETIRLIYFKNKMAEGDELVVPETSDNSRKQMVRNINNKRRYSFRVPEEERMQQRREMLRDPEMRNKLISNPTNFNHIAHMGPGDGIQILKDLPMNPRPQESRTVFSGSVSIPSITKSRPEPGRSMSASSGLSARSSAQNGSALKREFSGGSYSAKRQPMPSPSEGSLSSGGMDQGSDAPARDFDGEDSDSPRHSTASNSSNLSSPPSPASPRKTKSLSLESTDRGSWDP
CIT: Citron Rho-interacting kinase (CIT, Homo sapiens, UniProt O14578)
Chain of UniProt O14578 (whole entry, looked up): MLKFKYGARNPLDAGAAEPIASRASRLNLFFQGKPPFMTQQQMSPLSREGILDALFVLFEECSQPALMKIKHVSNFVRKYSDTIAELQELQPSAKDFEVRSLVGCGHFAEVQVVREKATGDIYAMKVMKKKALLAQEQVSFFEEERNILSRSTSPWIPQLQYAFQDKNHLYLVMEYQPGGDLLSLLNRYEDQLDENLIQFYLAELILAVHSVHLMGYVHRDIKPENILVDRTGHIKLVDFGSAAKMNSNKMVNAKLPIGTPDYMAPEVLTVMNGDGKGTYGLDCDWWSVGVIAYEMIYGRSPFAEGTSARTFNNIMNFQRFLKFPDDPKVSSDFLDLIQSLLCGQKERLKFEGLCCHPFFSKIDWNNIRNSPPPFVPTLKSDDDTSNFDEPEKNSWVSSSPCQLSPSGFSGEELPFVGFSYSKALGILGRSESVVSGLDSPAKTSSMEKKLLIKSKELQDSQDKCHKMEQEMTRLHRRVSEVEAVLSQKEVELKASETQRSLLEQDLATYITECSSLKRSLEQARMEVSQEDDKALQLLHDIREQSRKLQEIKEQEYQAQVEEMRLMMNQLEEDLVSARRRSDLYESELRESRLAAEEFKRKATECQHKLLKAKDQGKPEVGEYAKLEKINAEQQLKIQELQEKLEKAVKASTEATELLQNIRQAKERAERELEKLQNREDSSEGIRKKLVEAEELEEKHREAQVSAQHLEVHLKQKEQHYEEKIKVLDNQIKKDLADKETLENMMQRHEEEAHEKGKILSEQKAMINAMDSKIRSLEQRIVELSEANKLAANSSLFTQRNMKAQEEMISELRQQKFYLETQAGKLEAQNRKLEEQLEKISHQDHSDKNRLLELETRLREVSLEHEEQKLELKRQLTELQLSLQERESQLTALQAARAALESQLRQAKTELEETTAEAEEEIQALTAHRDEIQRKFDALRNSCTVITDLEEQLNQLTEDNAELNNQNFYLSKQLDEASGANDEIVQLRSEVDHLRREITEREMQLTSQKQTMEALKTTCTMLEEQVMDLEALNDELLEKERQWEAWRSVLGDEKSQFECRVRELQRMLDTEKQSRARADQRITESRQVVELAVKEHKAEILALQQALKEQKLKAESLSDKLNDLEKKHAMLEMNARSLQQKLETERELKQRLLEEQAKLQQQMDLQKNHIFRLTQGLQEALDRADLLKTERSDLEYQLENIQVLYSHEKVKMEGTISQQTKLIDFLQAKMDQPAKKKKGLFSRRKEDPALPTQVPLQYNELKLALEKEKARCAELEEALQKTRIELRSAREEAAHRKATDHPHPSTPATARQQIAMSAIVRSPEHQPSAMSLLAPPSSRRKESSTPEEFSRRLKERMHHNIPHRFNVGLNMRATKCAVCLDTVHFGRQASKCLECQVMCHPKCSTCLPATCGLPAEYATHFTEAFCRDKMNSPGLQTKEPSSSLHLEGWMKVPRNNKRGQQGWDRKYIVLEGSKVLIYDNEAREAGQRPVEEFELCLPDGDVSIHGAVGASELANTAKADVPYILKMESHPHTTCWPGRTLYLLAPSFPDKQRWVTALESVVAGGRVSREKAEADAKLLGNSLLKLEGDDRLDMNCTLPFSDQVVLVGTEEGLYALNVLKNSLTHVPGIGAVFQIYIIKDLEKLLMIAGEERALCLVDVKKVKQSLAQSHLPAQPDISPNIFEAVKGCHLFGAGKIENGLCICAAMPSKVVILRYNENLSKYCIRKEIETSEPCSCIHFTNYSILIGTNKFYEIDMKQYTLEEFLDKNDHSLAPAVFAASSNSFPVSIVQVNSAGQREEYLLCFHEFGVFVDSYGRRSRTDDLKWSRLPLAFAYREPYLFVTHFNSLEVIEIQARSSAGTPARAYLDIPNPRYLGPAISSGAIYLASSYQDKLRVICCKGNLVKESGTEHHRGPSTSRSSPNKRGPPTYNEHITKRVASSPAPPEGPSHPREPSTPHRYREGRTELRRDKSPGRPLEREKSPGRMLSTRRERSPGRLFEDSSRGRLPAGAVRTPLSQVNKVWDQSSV

| Compound | target | assay | conditions | how to read | remaining activity |
| --- | --- | --- | --- | --- | --- |
| COc1cc(F)ccc1-c1ncnc(Nc2cccc(C[S@](C)(=N)=O)c2)n1 | DCLK2 | kinase activity | 10 µM, together with: 10 µM ATP |  | 82% |
| C=CC(=O)N1CCC[C@@H](n2nc(-c3ccc(Oc4ccccc4)cc3)c3c(N)ncnc32)C1 | ERBB4 (Homo sapiens, UniProt Q15303) |  | 10 µM |  | 21.7% |
| COc1ccc(F)cc1C(=O)NCc1ccc(-c2nn([C@@H](C)C(F)(F)F)c(N)c2C(N)=O)cc1 | SRMS | kinase activity, inhibitor, HotSpot radiometric | 100 nM, together with: ATP 10 µM |  | 89.3 ± 0.1% |
| O=C(O)c1ccc(Nc2ncc3c(n2)-c2ccc(Cl)cc2C(c2c(F)cccc2F)=NC3)cc1 | FGFR4(h) | kinase activity | 1 µM |  | 115% |
| O=C(N/N=C/c1ccc2cc[nH]c2c1)c1cc2c(s1)CCCC2 | dxs (Deinococcus radiodurans, UniProt Q9RUB5) | enzyme activity, partial inhibitor | concentration not given |  | 40% |
| Cc1cc(NC(=O)c2cccc(NC(=O)/C=C/CN(C)C)c2)ccc1Nc1nccc(-c2cccnc2)n1 | MAPK9 (Homo sapiens, UniProt P45984) | enzyme activity, inhibitor | 0.02032 µM, unit not given | reference: vehicle | 0.621 |
| CC(=O)Nc1c(N)nc(SCC(=O)N/N=C/c2ccc([N+](=O)[O-])cc2)[nH]c1=O | CDK2 with cyclin A2 | kinase activity | 20 nM |  | 78.7% |
| CC(C)OCCn1c(=S)[nH]c(=O)c2[nH]ccc21 | Myeloperoxidase (MPO, Homo sapiens, UniProt P05164) | LDL lipid peroxidation, inhibitor, cholesteryl ester hydroperoxide | 0.1235 µM |  | 93.5% |
| C=CC(=O)N1CCC[C@@H](n2nc(-c3ccc(Oc4ccccc4)cc3)c3c(N)ncnc32)C1 | PRKACB | kinase activity, inhibitor, HotSpot radiometric | 100 nM, together with: ATP 10 µM |  | 79.4 ± 0.5% |
| COc1cc(Nc2ncc3c(n2)-c2ccc(Cl)cc2C(c2c(F)cccc2OC)=NC3)ccc1C(=O)O | KDR | kinase activity | 1 µM |  | 65% |
| CC(C)(C)c1nc(-c2cccc(NS(=O)(=O)c3c(F)cccc3F)c2F)c(-c2ccnc(N)n2)s1 | Protein kinase C beta type, isoform beta-II (PRKCB, Homo sapiens, UniProt P05771) | kinase activity, radiometric 33PanQinase | 1 µM | reference: DMSO | 84% |
| NC/C(=C\F)COc1cccc(Cn2c(=S)[nH]c(=O)c3[nH]cnc32)c1 | Peroxidasin homolog (PXDN, Homo sapiens, UniProt Q92626) | Amplex UltraRed | 50 µM, mean of replicates | reference: control | 10.2% |
| Cc1cc(Nc2cc(N3CCN(C)CC3)nc(Sc3ccc(NC(=O)C4CC4)cc3)n2)[nH]n1 | DCLK2 | kinase activity, KinaseProfiler | 0.03 µM, species human | reference: control | 101% |
| CNC(=O)c1cc(Oc2ccc(NC(=O)Nc3ccc(Cl)c(C(F)(F)F)c3)cc2)ccn1 | CDK2 with cyclin A2 | kinase activity, inhibitor, ADP-Glo kinase | 10 nM |  | 63.3% |
| COc1cc(N2CCN(C)CC2)ccc1Nc1nc(N)n(C(=O)NCc2ccccc2S(=O)(=O)C(C)C)n1 | DCLK2 | enzyme activity | 10 µM | reference: control | 17% |
| CC#CC(=O)N1CCC[C@H]1c1nc(-c2ccc(C(=O)Nc3ccccn3)cc2)c2c(N)nccn12 | SRMS | kinase activity, inhibitor, HotSpot radiometric | 100 nM, together with: ATP 10 µM |  | 92.7 ± 1.8% |
| CC(C)Oc1cc(N2CCN(C)CC2)ccc1Nc1nc(N)n(C(=O)NCc2ccccc2S(=O)(=O)C(C)C)n1 | IGF1R (Homo sapiens, UniProt P08069) | enzyme activity | 10 µM | reference: control | 5.4% |
| CC(=O)Nc1c(N)nc(SCC(=O)NN)[nH]c1=O | CDK2 with cyclin A2 | kinase activity | 10 nM |  | 77% |
| O=C(NC1CCC1)c1ccc2nc(-c3cccc(NS(=O)(=O)NCCN4CCCCC4)c3)cn2c1 | CDC42BPA | enzyme activity | 10 µM |  | 100% |
| COc1cc(N2CCN(C)CC2)ccc1Nc1nc(N)n(C(=S)NCc2c(Cl)cccc2Cl)n1 | CIT | enzyme activity | 10 µM | reference: control | 5.4% |
| Cc1ccc(NC(=O)c2ccc(C)c(C(F)(F)F)c2)cc1C#Cc1nn(C2CCC(O)CC2)c2ncnc(N)c12 (stereo not drawn) | Phosphatidylinositol 4,5-bisphosphate 3-kinase catalytic subunit delta isoform, with p85 alpha (Pik3cd, Mus musculus, UniProt O35904) | enzyme activity, inhibitor | 10 µM, p110d/p85a)(m mouse, together with: ATP 10 µM |  | 78% |
| CCOc1cc(N2CCN(C)CC2)ccc1Nc1nc(N)n(C(=O)NCc2ccccc2S(=O)(=O)C(C)C)n1 | CDC42BPA | enzyme activity | 10 µM | reference: control | 19% |
| O=C1NC(=O)/C(=C/c2ccc(-c3ccc(F)cc3O)o2)S1 | HIPK2 (Homo sapiens, UniProt Q9H2X6) | enzyme activity | 10 µM |  | 3% |
| Nc1ncc2c(n1)-c1c([nH]c3ccc(-c4ccc(F)cc4)cc13)CCC2 | TAOK2 (Homo sapiens, UniProt Q9UL54) | kinase activity, inhibitor, radiometric | 1 µM, together with: ATP at Km |  | 77% |
| C=CC(=O)N1CCC([C@@H]2CCNc3c(C(N)=O)c(-c4ccc(Oc5ccccc5)cc4)nn32)CC1 | PRKACB | kinase activity, inhibitor, HotSpot radiometric | 100 nM, together with: ATP 10 µM |  | 93.9% |
| CNc1ncc2c(/C=C/C(=O)N3CCC(OC)CC3)nn(Cc3cccc(C(F)(F)F)c3)c2n1 | EPHA3 (Homo sapiens, UniProt P29320) | kinase activity, inhibitor | 1 µM | reference: untreated control | 90% |
| COc1cc(-c2cncc3c2CN(C)Cc2cc(N4CCNCC4)ccc2-3)cc(OC)c1OC | CIT | kinase activity | 1 µM, human enzyme, together with: ATP 10 µM | reference: DMSO control | 97% |

For quick reference, copied from above:
| Compound | target | assay | conditions | how to read | remaining activity |
| --- | --- | --- | --- | --- | --- |
| COc1cc(N2CCN(C)CC2)ccc1Nc1nc(N)n(C(=O)NCc2ccccc2S(=O)(=O)C(C)C)n1 | DCLK2 | enzyme activity | 10 µM | reference: control | 17% |
| CC(C)Oc1cc(N2CCN(C)CC2)ccc1Nc1nc(N)n(C(=O)NCc2ccccc2S(=O)(=O)C(C)C)n1 | IGF1R (Homo sapiens, UniProt P08069) | enzyme activity | 10 µM | reference: control | 5.4% |
